Measurements collected from several papers.
Numbered parts are unrelated; each lists some results of a single study. Positions count from the first letter of the parent shown.

Block 1
Target: Prothrombin, mature alpha-thrombin (F2, Homo sapiens, UniProt P00734)
Method: aptamer microarray, sandwich
Molecule type: DNA with 2'F-ANA
Sample: in vitro
Tested at: 200 nM
Setting: whole 15-mer aptamer, many near background
Added: Cy3 exosite-II aptamer, 400 nM
Reading: higher = stronger binding
Sequence: GGTTGGTGTGGTTGG
| Modification | mean fluorescence intensity |
| --- | --- |
| 2'F-ANA at 2 3 4 5 8 | 123 a.u. |
| 2'F-ANA at 1 2 3 5 8 9 | 77.1 a.u. |
| 2'F-ANA at 2 9 10 11 12 13 14 15 | 87.9 a.u. |
| 2'F-ANA at 1 2 7 12 13 15 | 279 a.u. |
| 2'F-ANA at 1 2 6 7 8 10 14 | 49 a.u. |
| 2'F-ANA at 3 4 5 8 9 10 11 15 | 50.1 a.u. |
| 2'F-ANA at 3 5 8 9 10 12 13 15 | 63.4 a.u. |
| 2'F-ANA at 1 4 5 10 11 12 13 15 | 48 a.u. |
| 2'F-ANA at 3 4 5 6 9 10 12 13 | 48.6 a.u. |
| 2'F-ANA at 7 10 11 13 | 199 a.u. |
| 2'F-ANA at 2 3 6 7 11 13 14 15 | 342 a.u. |
| 2'F-ANA at 5 6 7 8 10 11 12 13 14 15 | 75.7 a.u. |
| 2'F-ANA at 5 6 7 8 13 14 15 | 52.4 a.u. |
| 2'F-ANA at 1 7 8 10 11 13 14 15 | 70 a.u. |
| 2'F-ANA at 2 3 4 5 6 8 10 14 | 62.6 a.u. |
| 2'F-ANA at 2 3 5 9 10 11 12 13 14 15 | 51.1 a.u. |
| 2'F-ANA at 1 4 7 8 9 10 11 13 15 | 50.9 a.u. |

Block 2
Target: ABI1, truncated, D143A, DHFR fusion (Arabidopsis thaliana)
Method: DHFR PCA, deep sequencing
Sample: yeast
Setting: methotrexate growth selection, single substitutions
Added: (+)-ABA 0.0091 µM
Baseline: wild-type fitted maximum
Reading: higher = stronger binding
Parent: PYL1, truncated, DHFR fusion (Arabidopsis thaliana); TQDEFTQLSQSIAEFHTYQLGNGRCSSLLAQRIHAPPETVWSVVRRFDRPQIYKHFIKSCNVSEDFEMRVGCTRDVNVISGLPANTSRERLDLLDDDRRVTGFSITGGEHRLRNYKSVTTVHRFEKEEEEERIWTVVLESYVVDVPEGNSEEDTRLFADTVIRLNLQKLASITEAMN
| Substitution | relative binding score [%] |
| --- | --- |
| C72N | 6.42 |
| A30V | 10.6 |
| L156I | 17.7 |
| R69F | -0.662 |
| V78R | 33.6 |
| N165W | -0.386 |
| E14F | 2.51 |
| D3R | 14.9 |
| Q51I | -5.29 |
| F157I | -1.36 |
| G102S | 0.63 |
| D144C | -2.6 |
| K58T | 3.9 |
| N77M | 41.3 |
| I105A | -1.05 |
| N149R | 11 |
| V100I | 13.4 |
| N149L | 27.8 |

Block 3
Target: Ras GTPase-activating protein-binding protein 1, full length (G3BP1, Homo sapiens, UniProt Q13283)
Chain of UniProt Q13283 (whole entry, looked up): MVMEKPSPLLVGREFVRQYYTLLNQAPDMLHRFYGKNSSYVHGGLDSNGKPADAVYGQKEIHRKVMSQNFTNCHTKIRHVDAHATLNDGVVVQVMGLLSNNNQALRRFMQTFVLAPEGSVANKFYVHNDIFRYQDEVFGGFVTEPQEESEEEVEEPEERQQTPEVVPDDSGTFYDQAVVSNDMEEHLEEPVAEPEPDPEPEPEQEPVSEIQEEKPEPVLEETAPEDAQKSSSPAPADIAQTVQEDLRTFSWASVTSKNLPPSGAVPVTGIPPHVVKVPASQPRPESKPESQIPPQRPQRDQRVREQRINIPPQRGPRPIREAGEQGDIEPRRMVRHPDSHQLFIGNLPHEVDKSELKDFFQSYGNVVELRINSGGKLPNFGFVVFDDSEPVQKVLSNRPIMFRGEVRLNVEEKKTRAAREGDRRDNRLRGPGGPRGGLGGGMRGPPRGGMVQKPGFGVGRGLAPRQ
Method: RNA Bind-n-Seq
Molecule type: RNA
Sample: in vitro
Tested at: 200 nM
Setting: whole 134-nt RNA, ends assumed
Added: 150 mM KCl
Baseline: input library
Reading: higher = stronger binding
| Sequence | log2 enrichment |
| --- | --- |
| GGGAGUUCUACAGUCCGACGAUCCCUCAAGUCCUGUGCUACACAUCGUAUGUACCGAAUCGGGUGGGUGGGUGGGAAAGUAUUAUGUUACGCCGUUCGGAUCUGCACUUCCAGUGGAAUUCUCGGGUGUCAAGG | 1.27 |
| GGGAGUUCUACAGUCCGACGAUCCCUCAAGUCCUGUGCUACACAUCGUAUGUACCGAAUCGGUUUUUGGUGGAGGAAAGUAUUAUGUUACGCCGUUCGGAUCUGCACUUCCAGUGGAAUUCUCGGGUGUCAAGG | 0.0204 |
| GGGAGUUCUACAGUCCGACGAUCAGUCCUGUGCUACACAUCGUAUGUACCGAAUCGUGUGUGUGUGUGUGUGUGUGUGUGAAAGUAUUAUGUUACGCCGUUCGGAUCUGCACUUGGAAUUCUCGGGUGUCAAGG | 0.676 |
| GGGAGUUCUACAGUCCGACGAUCCUGUGCUACACAUCGUAUGUACCGAAUCGGGGUUUUUGGGGAAAAAAAGGGGAAAAAGGGGAAAGUAUUAUGUUACGCCGUUCGGAUCUGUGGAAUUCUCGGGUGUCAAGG | -0.181 |
| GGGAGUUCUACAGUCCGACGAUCCUCAAGUCCUGUGCUACACAUCGUAUGUACCGAAUCGGGAAGGGAAGGGGAAGGAAAGUAUUAUGUUACGCCGUUCGGAUCUGCACUUCCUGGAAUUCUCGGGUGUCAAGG | 0.0201 |
| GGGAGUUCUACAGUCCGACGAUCUGUGCUACACAUCGUAUGUACCGAAUCGGGGCCCCCCCGGGGCCCCCCCGGGCCCCCCCGGGGAAAGUAUUAUGUUACGCCGUUCGGAUCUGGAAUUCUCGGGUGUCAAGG | -1.87 |
| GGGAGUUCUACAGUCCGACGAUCCUCAAGUCCUGUGCUACACAUCGUAUGUACCGAAUCGGUUGGUUGGGUUGGGGAAAGUAUUAUGUUACGCCGUUCGGAUCUGCACUUCCAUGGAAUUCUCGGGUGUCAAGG | -0.195 |
| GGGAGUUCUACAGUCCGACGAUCCAAGUCCUGUGCUACACAUCGUAUGUACCGAAUCGGGGUGGGGUUUGGGGUGGGGAAAGUAUUAUGUUACGCCGUUCGGAUCUGCACUUCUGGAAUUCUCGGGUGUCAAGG | 1.06 |
| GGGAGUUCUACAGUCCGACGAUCAGUCCUGUGCUACACAUCGUAUGUACCGAAUCGGGGAAAGGGGUGGGGUUUUUGGGGAAAGUAUUAUGUUACGCCGUUCGGAUCUGCACUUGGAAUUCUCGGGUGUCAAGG | 0.499 |
| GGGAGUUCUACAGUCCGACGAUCUUCCUCAAGUCCUGUGCUACACAUCGUAUGUACCGAAUCGGAGGUGGUGGAAAGUAUUAUGUUACGCCGUUCGGAUCUGCACUUCCAGCAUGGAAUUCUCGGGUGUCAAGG | -0.778 |

Mixed results
Molecule type: peptide
Organism: Saccharomyces cerevisiae
Reading: direction not given
| Molecule | target | effect on | method | strain | setting | enrichment score |
| --- | --- | --- | --- | --- | --- | --- |
| GFGFLLFICKLTF | Cln2 (Saccharomyces cerevisiae) | peptide binding | competitive growth sequencing | unfused Cln2 strain | mutational scanning library 2 | -0.563 |
| REASKSRVQLFKDDPM | human cyclin E2-Cln2 fusion | yeast growth | competitive growth deep sequencing |  | peptide tiling library | -1.93 |

For quick reference, copied from above (block 2):
| Substitution | relative binding score [%] |
| --- | --- |
| C72N | 6.42 |
| A30V | 10.6 |
| L156I | 17.7 |
| R69F | -0.662 |
| V78R | 33.6 |
| N165W | -0.386 |
| E14F | 2.51 |
